Assay results gathered from unrelated publications.
Each numbered part is a random draw from the data of one study; scales do not carry over between parts. Values joined by “and” are separate records of one study, mostly repeats; a detail may differ.
UniProt P22455, sequence (whole entry, looked up): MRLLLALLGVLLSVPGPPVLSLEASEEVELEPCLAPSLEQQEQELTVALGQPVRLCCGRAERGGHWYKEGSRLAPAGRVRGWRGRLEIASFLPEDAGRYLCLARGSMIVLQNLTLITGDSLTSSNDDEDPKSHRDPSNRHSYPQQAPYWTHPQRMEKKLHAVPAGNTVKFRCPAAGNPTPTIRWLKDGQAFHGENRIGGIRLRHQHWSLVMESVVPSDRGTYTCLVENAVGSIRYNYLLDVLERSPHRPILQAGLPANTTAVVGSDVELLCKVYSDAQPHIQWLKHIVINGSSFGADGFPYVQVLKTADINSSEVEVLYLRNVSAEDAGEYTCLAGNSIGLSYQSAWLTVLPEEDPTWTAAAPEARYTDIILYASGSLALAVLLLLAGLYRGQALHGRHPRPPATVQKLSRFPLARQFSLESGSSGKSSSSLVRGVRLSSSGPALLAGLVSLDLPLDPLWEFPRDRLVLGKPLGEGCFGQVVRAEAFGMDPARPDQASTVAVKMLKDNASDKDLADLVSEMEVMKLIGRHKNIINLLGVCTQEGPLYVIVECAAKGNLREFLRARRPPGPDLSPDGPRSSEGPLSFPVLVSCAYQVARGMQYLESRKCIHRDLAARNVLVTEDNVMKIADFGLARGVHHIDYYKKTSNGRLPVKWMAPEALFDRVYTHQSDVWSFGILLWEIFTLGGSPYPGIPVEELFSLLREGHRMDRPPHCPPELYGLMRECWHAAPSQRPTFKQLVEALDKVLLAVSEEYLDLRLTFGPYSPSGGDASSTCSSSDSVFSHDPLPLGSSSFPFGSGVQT
UniProt P36897, sequence (whole entry, looked up): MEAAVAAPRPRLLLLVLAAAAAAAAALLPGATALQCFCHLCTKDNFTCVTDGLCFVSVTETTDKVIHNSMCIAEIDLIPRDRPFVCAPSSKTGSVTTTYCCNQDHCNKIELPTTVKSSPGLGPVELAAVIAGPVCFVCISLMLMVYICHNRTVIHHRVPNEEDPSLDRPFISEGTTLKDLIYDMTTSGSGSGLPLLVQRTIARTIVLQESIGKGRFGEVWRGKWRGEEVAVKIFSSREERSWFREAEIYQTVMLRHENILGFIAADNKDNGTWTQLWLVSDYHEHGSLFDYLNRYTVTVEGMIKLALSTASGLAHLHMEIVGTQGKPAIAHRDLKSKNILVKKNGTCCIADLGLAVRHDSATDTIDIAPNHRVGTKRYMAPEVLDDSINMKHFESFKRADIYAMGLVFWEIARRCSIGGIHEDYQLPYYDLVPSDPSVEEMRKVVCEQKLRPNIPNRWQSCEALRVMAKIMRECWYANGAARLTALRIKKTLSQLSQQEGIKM
UniProt Q9H3Y6, sequence (whole entry, looked up): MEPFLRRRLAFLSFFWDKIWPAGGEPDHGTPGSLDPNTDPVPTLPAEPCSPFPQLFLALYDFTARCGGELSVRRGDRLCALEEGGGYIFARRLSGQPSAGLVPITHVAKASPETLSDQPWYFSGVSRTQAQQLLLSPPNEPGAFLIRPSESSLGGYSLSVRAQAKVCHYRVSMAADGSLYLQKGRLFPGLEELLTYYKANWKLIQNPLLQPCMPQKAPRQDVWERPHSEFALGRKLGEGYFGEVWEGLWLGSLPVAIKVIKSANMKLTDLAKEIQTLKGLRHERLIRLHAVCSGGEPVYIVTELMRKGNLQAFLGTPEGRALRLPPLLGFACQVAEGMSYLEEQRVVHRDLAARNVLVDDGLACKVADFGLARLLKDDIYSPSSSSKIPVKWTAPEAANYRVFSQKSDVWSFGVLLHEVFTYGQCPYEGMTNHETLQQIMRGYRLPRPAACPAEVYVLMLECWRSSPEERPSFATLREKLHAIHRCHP
UniProt O94804, sequence (whole entry, looked up): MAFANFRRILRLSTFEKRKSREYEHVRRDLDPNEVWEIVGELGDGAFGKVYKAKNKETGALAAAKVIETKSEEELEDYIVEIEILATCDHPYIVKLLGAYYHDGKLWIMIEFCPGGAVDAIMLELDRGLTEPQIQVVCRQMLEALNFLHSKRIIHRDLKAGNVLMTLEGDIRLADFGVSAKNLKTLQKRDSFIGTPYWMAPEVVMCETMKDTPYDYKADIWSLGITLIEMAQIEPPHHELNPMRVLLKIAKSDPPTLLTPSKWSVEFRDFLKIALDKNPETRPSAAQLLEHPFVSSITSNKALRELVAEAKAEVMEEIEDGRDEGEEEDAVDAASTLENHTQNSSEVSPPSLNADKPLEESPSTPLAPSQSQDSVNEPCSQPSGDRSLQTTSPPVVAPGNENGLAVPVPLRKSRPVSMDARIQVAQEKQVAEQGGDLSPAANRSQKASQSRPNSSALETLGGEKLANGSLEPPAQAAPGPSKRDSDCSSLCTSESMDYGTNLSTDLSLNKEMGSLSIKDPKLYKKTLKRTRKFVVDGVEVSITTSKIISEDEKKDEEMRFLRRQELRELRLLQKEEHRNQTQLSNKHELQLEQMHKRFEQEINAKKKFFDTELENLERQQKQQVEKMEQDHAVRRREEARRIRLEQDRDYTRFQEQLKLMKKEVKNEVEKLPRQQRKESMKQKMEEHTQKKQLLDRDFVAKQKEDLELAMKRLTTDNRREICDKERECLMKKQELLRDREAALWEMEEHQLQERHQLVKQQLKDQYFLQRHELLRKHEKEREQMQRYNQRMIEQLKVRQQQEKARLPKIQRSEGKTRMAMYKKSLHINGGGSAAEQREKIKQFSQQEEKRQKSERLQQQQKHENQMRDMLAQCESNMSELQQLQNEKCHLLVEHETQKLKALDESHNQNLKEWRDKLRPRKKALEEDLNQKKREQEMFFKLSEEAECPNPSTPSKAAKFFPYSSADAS
UniProt Q16584, sequence (whole entry, looked up): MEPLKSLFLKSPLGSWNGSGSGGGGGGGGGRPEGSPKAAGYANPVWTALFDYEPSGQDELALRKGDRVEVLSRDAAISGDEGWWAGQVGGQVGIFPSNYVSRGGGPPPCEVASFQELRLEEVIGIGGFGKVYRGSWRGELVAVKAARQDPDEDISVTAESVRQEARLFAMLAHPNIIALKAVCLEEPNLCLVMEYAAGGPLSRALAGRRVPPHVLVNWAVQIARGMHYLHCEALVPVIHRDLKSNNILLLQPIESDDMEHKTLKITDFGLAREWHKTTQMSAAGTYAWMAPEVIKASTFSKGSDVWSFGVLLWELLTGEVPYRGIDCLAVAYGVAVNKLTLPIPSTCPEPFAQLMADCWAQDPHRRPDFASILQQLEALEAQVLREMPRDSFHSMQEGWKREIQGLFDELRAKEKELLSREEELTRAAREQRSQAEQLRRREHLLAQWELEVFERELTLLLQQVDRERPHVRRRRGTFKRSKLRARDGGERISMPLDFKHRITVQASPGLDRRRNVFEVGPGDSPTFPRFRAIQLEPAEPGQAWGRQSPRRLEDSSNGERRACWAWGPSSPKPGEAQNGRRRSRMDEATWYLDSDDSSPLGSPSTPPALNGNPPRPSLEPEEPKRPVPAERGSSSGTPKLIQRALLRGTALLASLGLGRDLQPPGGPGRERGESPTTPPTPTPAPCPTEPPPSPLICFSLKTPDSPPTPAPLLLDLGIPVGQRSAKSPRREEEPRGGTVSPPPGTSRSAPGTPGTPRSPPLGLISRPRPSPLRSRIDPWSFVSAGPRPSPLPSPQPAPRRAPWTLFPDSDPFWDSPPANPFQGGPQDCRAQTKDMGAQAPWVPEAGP
UniProt O14733, sequence (whole entry, looked up): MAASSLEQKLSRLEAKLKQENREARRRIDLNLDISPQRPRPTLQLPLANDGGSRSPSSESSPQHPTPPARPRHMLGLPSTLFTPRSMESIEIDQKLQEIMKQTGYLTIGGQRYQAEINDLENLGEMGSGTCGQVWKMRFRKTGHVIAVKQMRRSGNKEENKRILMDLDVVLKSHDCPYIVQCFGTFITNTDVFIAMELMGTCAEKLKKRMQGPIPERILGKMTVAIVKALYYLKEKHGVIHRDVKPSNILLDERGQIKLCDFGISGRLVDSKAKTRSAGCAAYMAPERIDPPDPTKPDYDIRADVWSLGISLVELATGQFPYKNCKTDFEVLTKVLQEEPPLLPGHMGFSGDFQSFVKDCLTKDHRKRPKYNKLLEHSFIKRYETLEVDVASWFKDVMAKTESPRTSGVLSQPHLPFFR
UniProt P48729, sequence (whole entry, looked up): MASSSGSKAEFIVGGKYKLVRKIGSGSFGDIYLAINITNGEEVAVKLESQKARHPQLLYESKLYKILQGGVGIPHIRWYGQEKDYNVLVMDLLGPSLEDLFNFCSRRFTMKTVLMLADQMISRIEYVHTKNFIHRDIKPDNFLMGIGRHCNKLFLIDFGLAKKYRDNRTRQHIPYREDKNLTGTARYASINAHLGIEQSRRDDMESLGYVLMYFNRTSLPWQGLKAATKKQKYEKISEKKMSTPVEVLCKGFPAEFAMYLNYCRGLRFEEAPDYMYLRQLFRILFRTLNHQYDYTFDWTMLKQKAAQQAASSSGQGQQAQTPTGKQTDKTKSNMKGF
UniProt Q00535, sequence (whole entry, looked up): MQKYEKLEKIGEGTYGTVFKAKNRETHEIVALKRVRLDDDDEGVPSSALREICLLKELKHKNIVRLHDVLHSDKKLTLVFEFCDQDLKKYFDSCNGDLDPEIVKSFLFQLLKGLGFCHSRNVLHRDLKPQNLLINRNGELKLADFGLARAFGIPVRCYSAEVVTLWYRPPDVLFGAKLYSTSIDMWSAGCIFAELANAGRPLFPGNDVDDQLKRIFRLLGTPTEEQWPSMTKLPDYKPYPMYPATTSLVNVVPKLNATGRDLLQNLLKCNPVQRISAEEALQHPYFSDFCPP
UniProt Q00532, sequence (whole entry, looked up): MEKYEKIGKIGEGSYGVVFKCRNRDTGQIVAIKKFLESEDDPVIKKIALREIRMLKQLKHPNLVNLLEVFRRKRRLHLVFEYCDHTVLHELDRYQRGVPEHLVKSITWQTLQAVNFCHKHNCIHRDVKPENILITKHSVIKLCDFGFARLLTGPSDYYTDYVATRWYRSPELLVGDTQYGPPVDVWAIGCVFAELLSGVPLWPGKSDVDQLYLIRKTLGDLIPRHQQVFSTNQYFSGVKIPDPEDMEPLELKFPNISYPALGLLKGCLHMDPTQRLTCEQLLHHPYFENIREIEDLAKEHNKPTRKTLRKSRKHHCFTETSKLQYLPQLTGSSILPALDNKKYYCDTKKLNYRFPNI

Block 1
Cell line: HaCaT
Tested at: 100 µM
Time: 36 h
Structure (SMILES)	viability [%]
O=C(CCCCCCC(=O)Nc1ccccc1)NO	5.65
O=P(O)(O)C(O)(Cn1ccnc1)P(=O)(O)O	25.1
COC(=O)[C@H]1[C@H]2C[C@@H]3c4[nH]c5cc(OC)ccc5c4CCN3C[C@H]2C[C@@H](OC(=O)c2cc(OC)c(OC)c(OC)c2)[C@@H]1OC	57.1
CC(C)=CCC[C@](C)(O[C@@H]1O[C@H](CO[C@@H]2O[C@@H](CO)[C@H](O)[C@H]2O)[C@@H](O)[C@H](O)[C@H]1O)[C@H]1CC[C@]2(C)[C@@H]1[C@H](O)C[C@@H]1[C@@]3(C)CC[C@H](O[C@@H]4O[C@H](CO)[C@@H](O)[C@H](O)[C@H]4O[C@@H]4O[C@H](CO)[C@@H](O)[C@H](O)[C@H]4O)C(C)(C)[C@@H]3CC[C@]12C	89.8
COc1cc(NS(=O)(=O)c2ccc(N)cc2)nc(OC)n1	66
Nc1c2c(nc3ccccc13)CCCC2	26.2
Cc1cc(CC(=O)O)n(C)c1C(=O)c1ccc(Cl)cc1	95.9
O=C(NC1CCN(CCCCC2(C(=O)NCC(F)(F)F)c3ccccc3-c3ccccc32)CC1)c1ccccc1-c1ccc(C(F)(F)F)cc1	7.76

Block 2
Cell line: mouse MPNST tumor cells
Method: high-content nuclear imaging
Refers to: cell number
Tested at: 10 µM
Time: 12 h
Notes: mean of 2 replicates
Reference: plate mean
Direction: higher = more cells
SMILES	nuclei count
Cc1ncc([N+](=O)[O-])n1CCO	1.32 z-score and -0.356 z-score
OC(c1ccc(-c2ccc(CN3CCN(Cc4ccncc4)CC3)cc2)c(F)c1)(C(F)(F)F)C(F)(F)F	0.521 z-score
O/N=C/c1ccc(-c2ccc(O)c(F)c2)c(Cl)c1O	5.9 z-score
CCCNC(C)C(=O)Nc1ccccc1C (stereo not shown)	2.21 z-score
CCOC(=O)C1=C(C)NC(C)=C(C(=O)OCC)C1c1ccccc1/C=C/C(=O)OC(C)(C)C	-0.838 z-score
CCOc1ccc2ccccc2c1C(=O)N[C@@H]1C(=O)N2[C@@H]1SC(C)(C)[C@@H]2C(=O)O	0.0502 z-score
O=C(O)c1ccc(-c2ccc3cc(O)c(C45CC6CC(CC(C6)C4)C5)cc3c2)cc1	-2.22 z-score

Block 3
Compound: Cc1cn(-c2cc(NC(=O)c3ccc(C)c(Nc4nccc(-c5cccnc5)n4)c3)cc(C(F)(F)F)c2)cn1
Observed: enzyme activity
Mode: inhibitor
Tested at: 0.5 µM
Reference: control
target	remaining activity
Tyrosine-protein kinase Lyn, isoform B (LYN, Homo sapiens, UniProt P07948)	50.7%
Mitogen-activated protein kinase kinase kinase 3 (MAP3K3, Homo sapiens, UniProt Q99759)	115%
Serine/threonine-protein kinase Nek2 (NEK2, Homo sapiens, UniProt P51955)	103%
Cyclin-dependent kinase 5, with p25 (CDK5, Homo sapiens, UniProt Q00535)	91.7%
Protein kinase C beta type, isoform beta-I (PRKCB, Homo sapiens, UniProt P05771)	92.9%
Cyclin-dependent kinase 4, with cyclin D1 (CDK4, Homo sapiens, UniProt P11802)	97%
Serine/threonine-protein kinase 10 (STK10, Homo sapiens, UniProt O94804)	103%
Protein kinase C alpha type (PRKCA, Homo sapiens, UniProt P17252)	83.5%
Death-associated protein kinase 1 (DAPK1, Homo sapiens, UniProt P53355)	102%
Serine/threonine-protein kinase Chk2 (CHEK2, Homo sapiens, UniProt O96017)	102%
TGF-beta receptor type-1 (TGFBR1, Homo sapiens, UniProt P36897)	99.9%
Inhibitor of nuclear factor kappa-B kinase subunit epsilon (IKBKE, Homo sapiens, UniProt Q14164)	94.6%
Calcium/calmodulin-dependent protein kinase kinase 2 (CAMKK2, Homo sapiens, UniProt Q96RR4)	97.5%
Inhibitor of nuclear factor kappa-B kinase subunit beta (IKBKB, Homo sapiens, UniProt O14920)	82.8%
Death-associated protein kinase 2 (DAPK2, Homo sapiens, UniProt Q9UIK4)	100%
Calcium/calmodulin-dependent protein kinase type II subunit delta (CAMK2D, Homo sapiens, UniProt Q13557)	90%
TGF-beta receptor type-2 (TGFBR2, Homo sapiens, UniProt P37173)	100%
cGMP-dependent protein kinase 1, isoform beta (PRKG1, Homo sapiens, UniProt Q13976)	97.1%
Mitogen-activated protein kinase 9 (MAPK9, Homo sapiens, UniProt P45984)	95.9%
G protein-coupled receptor kinase 3 (GRK3, Homo sapiens, UniProt P35626)	95.1%
Serine/threonine-protein kinase OSR1 (OXSR1, Homo sapiens, UniProt O95747)	105%
cAMP-dependent protein kinase catalytic subunit alpha (PRKACA, Homo sapiens, UniProt P17612)	98.6%

Block 4
Structure (SMILES): COc1ccc2c(O[C@@H]3C[C@H]4C(=O)N[C@]5(C(=O)O)CC5/C=C\CCCCC[C@H](NC(=O)OC5CCCC5)C(=O)N4C3)cc(-c3csc(NC(=O)C(C)C)n3)nc2c1C (stereo partly shown)
Observed: cell-free assay
Method: competition with immobilised ligand
Tested at: 1 µM
target	remaining binding
Serine/threonine-protein kinase Nek11 (NEK11, Homo sapiens, UniProt Q8NG66)	84%
RAC-alpha serine/threonine-protein kinase (AKT1, Homo sapiens, UniProt P31749)	100%
TRAF2 and NCK-interacting protein kinase (TNIK, Homo sapiens, UniProt Q9UKE5)	96%
Dual specificity mitogen-activated protein kinase kinase 7 (MAP2K7, Homo sapiens, UniProt O14733)	81%
Tyrosine-protein kinase Yes (YES1, Homo sapiens, UniProt P07947)	100%
Phosphatidylinositol 4,5-bisphosphate 3-kinase catalytic subunit delta isoform (PIK3CD, Homo sapiens, UniProt O00329)	100%
Mast/stem cell growth factor receptor Kit (KIT, Homo sapiens, UniProt P10721, D816V)	95%
Serine/threonine-protein kinase TAO1 (TAOK1, Homo sapiens, UniProt Q7L7X3)	96%
Mitogen-activated protein kinase kinase kinase 11 (MAP3K11, Homo sapiens, UniProt Q16584)	100%
Fibroblast growth factor receptor 4 (FGFR4, Homo sapiens, UniProt P22455)	100%
Cyclin-dependent kinase-like 1 (CDKL1, Homo sapiens, UniProt Q00532)	99%
Casein kinase I isoform alpha (CSNK1A1, Homo sapiens, UniProt P48729)	68%
Tyrosine-protein kinase Srms (SRMS, Homo sapiens, UniProt Q9H3Y6)	98%
Serine/threonine-protein kinase 3 (STK3, Homo sapiens, UniProt Q13188)	86%
Homeodomain-interacting protein kinase 2 (HIPK2, Homo sapiens, UniProt Q9H2X6)	68%

Repeated from above (block 4):
target	remaining binding
RAC-alpha serine/threonine-protein kinase (AKT1, Homo sapiens, UniProt P31749)	100%
TRAF2 and NCK-interacting protein kinase (TNIK, Homo sapiens, UniProt Q9UKE5)	96%
Dual specificity mitogen-activated protein kinase kinase 7 (MAP2K7, Homo sapiens, UniProt O14733)	81%
Tyrosine-protein kinase Yes (YES1, Homo sapiens, UniProt P07947)	100%
Phosphatidylinositol 4,5-bisphosphate 3-kinase catalytic subunit delta isoform (PIK3CD, Homo sapiens, UniProt O00329)	100%
Mast/stem cell growth factor receptor Kit (KIT, Homo sapiens, UniProt P10721, D816V)	95%
Serine/threonine-protein kinase TAO1 (TAOK1, Homo sapiens, UniProt Q7L7X3)	96%
